# Measured values collected from several papers.
# Protocols differ between the studies behind these lines. Values joined by “and” are separate records of one study, mostly repeats; a detail may differ. ± marks the error that the study gave.
# Uridine nucleoside ribohydrolase: Uridine nucleoside ribohydrolase (Trichomonas vaginalis, UniProt A2FTT0)
# SSTR1: Somatostatin receptor type 1 (SSTR1, Homo sapiens, UniProt P30872)
# TNKS2: Poly [ADP-ribose] polymerase tankyrase-2 (TNKS2, Homo sapiens, UniProt Q9H2K2)
# MMP2: 72 kDa type IV collagenase (MMP2, Homo sapiens, UniProt P08253)
# HDAC9: Histone deacetylase 9 (HDAC9, Homo sapiens, UniProt Q9UKV0)
# Alpha-amylase: Alpha-amylase (Bos taurus, UniProt Q3MHH8)
# HTR1D: 5-hydroxytryptamine receptor 1D (HTR1D, Homo sapiens, UniProt P28221)
SMILES,target,test,test system,setting,inhibition
CC(=O)Nc1ccccc1-c1ccc(O)cc1,Uridine nucleoside ribohydrolase,19F NMR,,"100 µM, added: 0.01% Triton X-100",100%
C[Si]1(C[C@H](CN)CC(=O)O)CCCC1,SSTR1,"ligand displacement, radioligand",,70 µM,0%
CO[C@@H](C)c1c(NC(=O)Nc2cnc(-n3nccn3)c(C(F)(F)F)c2)cnc2sc(C)nc12,"Neuropeptide Y receptor type 2 (NPY2R, Homo sapiens, UniProt P49146)","ligand displacement, radioligand",,10 µM,2.7%
O=C(CCCc1ccc2c(c1)OCCO2)NCCNC(=O)Cn1c(=O)[nH]c(=O)c2ccccc21,TNKS2,"enzyme activity, inhibitor",,50 nM,18%
O=C(CNc1nc(Cl)nc(NNC(=O)c2ccc(Nc3nc(Nc4ccc(C(=O)NNc5nc(Cl)nc(NCC(=O)NO)n5)cc4)nc(Nc4ccc(C(=O)NNc5nc(Cl)nc(NCC(=O)NO)n5)cc4)n3)cc2)n1)NO,MMP2,"enzyme activity, inhibitor, fluorescence",,0.001 µg/mL,54%
CCn1cc(C(=O)O)c(=O)c2c(N)c(F)c(NC3CCCCC3)cc21,"Cyclin-dependent kinase 6, with cyclin D1 (CDK6, Homo sapiens, UniProt Q00534)",kinase activity,,"0.1 µM, added: ATP at Km",52%
Cn1cc(-c2ccc(C(N)=O)cc2)cn1,Uridine nucleoside ribohydrolase,19F NMR,,50 µM,100%
Cc1cc(C(=O)NCCNC(=O)c2cccc(COc3ccccc3C(N)=O)c2)n[nH]1,TNKS2,"enzyme activity, inhibitor",,0.104 µM,100%
CN(C)C/C=C/C(=O)Nc1ccc2nc(NCCCCCN(C)C)nc(NCCCCCCN(C)C)c2c1,"N-lysine methyltransferase SMYD2 (SMYD2, Homo sapiens, UniProt Q9NRG4)","enzyme activity, inhibitor, radiometric",,50 µM,77%
O=C(CC1CC2CCC1C2)NCCNC(=O)Cn1c(=O)[nH]c(=O)c2ccccc21 (stereo not drawn),TNKS2,"enzyme activity, inhibitor",,50 nM,17%
Cc1cc(Cl)cc(-c2ccnc3cc(CN4C(=O)C5C(C4=O)C5(C)C)sc23)c1C[C@@H]1CNCCO1 (stereo partly drawn),"Ubiquitin carboxyl-terminal hydrolase 7 (USP7, Homo sapiens, UniProt Q93009, V517F)","enzyme activity, inhibitor",,0.05 µM,34.4% and 25.8%
Cc1c(OS(=O)(=O)Oc2ccccc2-c2ccccc2)cccc1C(=O)NO,"Protein deacetylase HDAC6 (HDAC6, Homo sapiens, UniProt Q9UBN7)","enzyme activity, inhibitor, fluorescence",,10 µM,30%
COC(=O)c1cccc2c1NC(=O)C2(O)CC(NC(=O)c1cc2[nH]ncc2cn1)C(=O)NCc1ccc2c(c1)OC(F)(F)O2 (stereo not drawn),"D-3-phosphoglycerate dehydrogenase (PHGDH, Homo sapiens, UniProt O43175)","enzyme activity, inhibitor",,25 µM,53.1%
CC[C@H](C)[C@@H]1NC(=O)[C@H](Cc2ccccc2C(F)(F)F)NC(=O)CCSCc2cccc(n2)CSCCCNC(=O)[C@H](CCCCCC(=O)NO)NC1=O,HDAC9,"enzyme activity, inhibitor, fluorogenic",,30 µM,20%
N=C(N)NCCCC(NC(=O)C(CC(=O)NO)Cc1ccc2ccccc2c1)C(=O)NC(Cc1c[nH]c2ccccc12)C(=O)NC(CCC(=O)O)C(N)=O (stereo not drawn),"Stromelysin-1 (MMP3, Homo sapiens, UniProt P08254)",,,1 µM,6%
Cn1sc(Nc2c(Cl)ccc3ncccc23)c(C#N)c1=O,TNKS2,"enzyme activity, inhibitor",,10 µM,5%
O=[N+]([O-])c1ccc(Cn2cc(Cn3cc(CO)nn3)nn2)cc1,"Pleckstrin homology domain-containing family A member 1, PH domain (Homo sapiens, UniProt Q9HB21)","PI(3,4)P2 binding to PH domain, SPR",,200 µM,47 ± 8%
"CC(=O)C12NC(C)(C)CC1(C)C(=O)C1=C2c2c(c3c4n2C(C)(C)CC2=C4C4(CC(C)(C)NC(C)(C4)C2=O)CC3(C)C)C(=O)C(C)(C)N1 (single isomer, unassigned; (-))","TRPM3 (Homo sapiens, UniProt Q9HCF6)",antagonist,HEK293T,10 µM,23.76 ± 0.03%
O=C1CO[C@H](CNC(=O)C2(c3ccc(Cl)cc3)CC2)CN1C1Cc2ccccc2C1,"Atypical chemokine receptor 3 (ACKR3, Homo sapiens, UniProt P25106)","β-arrestin recruitment, antagonist",,1 µM,9%
O=C(/C=C/c1cccc(OS(=O)(=O)Oc2ccc(Br)cc2)c1)NO,HDAC9,"enzyme activity, inhibitor, fluorescence",,10 µM,15%
CS(=O)(=O)Nc1cccc(-c2csc3cnc(Nc4ccc(N5CCN(CCCCCOc6cccc7c6C(=O)N(C6CCC(=O)NC6=O)C7=O)CC5)cc4)nc23)c1 (stereo not drawn),"Diacylglycerol kinase eta (DGKH, Homo sapiens, UniProt Q86XP1)","probe labelling, inhibitor, KiNativ chemoproteomics",MOLT-4,1 µM,-13.7%
CC1=NN(c2cccc(F)c2)C(=O)/C1=N\Nc1ccc(S(N)(=O)=O)cc1,Alpha-amylase,"enzyme activity, inhibitor, glucose oxidase",,"50 µg/mL, added: dextrin",18%
NC(=O)[C@@H](O)C[C@H]1CCc2sc3ncnc(O[C@H]4CC[C@H](N5CCOCC5)CC4)c3c21,"Lymphokine-activated killer T-cell-originated protein kinase (PBK, Homo sapiens, UniProt Q96KB5)","enzyme activity, inhibitor",,10 µM,10%
O=C(CNc1nc(NNC(=O)c2ccc(Nc3nc(Nc4ccc(C(=O)NNc5nc(NCC(=O)NO)nc(N6CCCCC6)n5)cc4)nc(Nc4ccc(C(=O)NNc5nc(NCC(=O)NO)nc(N6CCCCC6)n5)cc4)n3)cc2)nc(N2CCCCC2)n1)NO,MMP2,"enzyme activity, inhibitor, fluorescence",,0.0001 µg/mL,48%
Cc1ccc(-c2nn(-c3ccc(S(C)(=O)=O)cc3)cc2/C=N/N=C2/NC(=O)CS2)cc1,"Epidermal growth factor receptor (EGFR, Homo sapiens, UniProt P00533)","kinase activity, inhibitor",,0.1 µM,34.8%
CN1CCN(CC(=O)c2ccccc2)C1=O,Uridine nucleoside ribohydrolase,19F NMR,,100 µM,89.8%
CC1Cc2ccccc2N1C(=O)CN1CCN(Cc2ccccc2)CC1 (stereo not drawn),HTR1D,radioligand binding,,"concentration not given, added: [3H]5-CT",63%
C=CC(=O)N1Cc2nc(-c3cc(-c4cc(Cl)cnc4Cl)c(F)cc3F)n(-c3ccncn3)c2C1,"Serine/threonine-protein kinase/endoribonuclease IRE2 (ERN2, Homo sapiens, UniProt Q76MJ5)","cell-free assay, inhibitor",,1 µM,3.7%
Cc1cccnc1-c1ccc(C(N)=O)cc1,Uridine nucleoside ribohydrolase,19F NMR,,50 µM,100%
CC1=NN(c2ccccc2F)C(=O)/C1=N\Nc1ccc(S(N)(=O)=O)cc1,Alpha-amylase,"enzyme activity, inhibitor, glucose oxidase",,"200 µg/mL, added: dextrin",16.1%
O=C1c2sc(-c3ccc(N4CCC(F)C4)nc3F)nc2CCN1c1cccnc1 (stereo not drawn),"Type-1 angiotensin II receptor (AGTR1, Homo sapiens, UniProt P30556)","ligand displacement, radioligand",,1 µM,-6%
COCC(=O)N1CCc2cc(-c3csc(NC(=O)c4cc(OC)cc(OC)c4)n3)ccc21,"imidazoline I2 receptor, rat central",radioligand binding,,10 µM,15%
C/C=C/C(=O)Nc1ccc2nc(NCCCCCN(C)C)nc(NCCCCCCN(C)C)c2c1,"Histone-lysine N-methyltransferase PRDM9 (PRDM9, Homo sapiens, UniProt Q9NQV7)","enzyme activity, inhibitor, radiometric",,50 µM,80%
CN(Cc1ccc(/C=C/C(=O)NO)cc1)CC12CC3CC(CC(C3)C1)C2,human GR receptor,agonist radioligand binding,,0.05 µM,-3%
CC[C@H](C)C(=O)O[C@H]1C[C@@H](C)C=C2C=C[C@H](C)[C@H](CC[C@@H]3CC=CC(=O)O3)[C@H]21,"Cystic fibrosis transmembrane conductance regulator (CFTR, Homo sapiens, UniProt P13569)","ion current, inhibitor",T84,5 µM,~85%
Cc1nc2c(F)cc(-c3nc(Nc4ccc(CNC(=O)CCCCCCC(=O)NO)cc4)ncc3F)cc2n1C(C)C,"Tau-tubulin kinase 2 (TTBK2, Homo sapiens, UniProt Q6IQ55)","enzyme activity, inhibitor",,1 µM,12%
CC(=O)Nc1ccc(F)cc1-c1ccncc1,Uridine nucleoside ribohydrolase,19F NMR,,"50 µM, added: 0.01% Triton X-100",47.7%
C[Si](C)(C)C[C@@H](CN)CC(=O)O,SSTR1,"ligand displacement, radioligand",,75 µM,-6%
COc1ccc(CN2CC3CCCCN3C2=O)cc1 (stereo not drawn),Uridine nucleoside ribohydrolase,19F NMR,,100 µM,100%
COc1ccc(C(=O)Nc2c(-c3cccs3)nc3ccccn23)cc1,HTR1D,"ligand displacement, radioligand",,10 µM,< 50%
COc1ccc(C#CC2=C[C@H]3C[C@@]4(OC(=O)C=C24)[C@H]2CC[C@H](C(OC)OC)N32)cc1,"cGMP-inhibited 3',5'-cyclic phosphodiesterase 3A (PDE3A, Homo sapiens, UniProt Q14432)","cell-free assay, inhibitor",,10 µM,0%
Cc1cccnc1-c1cccc(C#N)c1,Uridine nucleoside ribohydrolase,19F NMR,,100 µM,100%

# Excerpt of the above:
SMILES,target,test,test system,setting,inhibition
O=C1CO[C@H](CNC(=O)C2(c3ccc(Cl)cc3)CC2)CN1C1Cc2ccccc2C1,"Atypical chemokine receptor 3 (ACKR3, Homo sapiens, UniProt P25106)","β-arrestin recruitment, antagonist",,1 µM,9%
O=C(/C=C/c1cccc(OS(=O)(=O)Oc2ccc(Br)cc2)c1)NO,HDAC9,"enzyme activity, inhibitor, fluorescence",,10 µM,15%
CS(=O)(=O)Nc1cccc(-c2csc3cnc(Nc4ccc(N5CCN(CCCCCOc6cccc7c6C(=O)N(C6CCC(=O)NC6=O)C7=O)CC5)cc4)nc23)c1 (stereo not drawn),"Diacylglycerol kinase eta (DGKH, Homo sapiens, UniProt Q86XP1)","probe labelling, inhibitor, KiNativ chemoproteomics",MOLT-4,1 µM,-13.7%
CC1=NN(c2cccc(F)c2)C(=O)/C1=N\Nc1ccc(S(N)(=O)=O)cc1,Alpha-amylase,"enzyme activity, inhibitor, glucose oxidase",,"50 µg/mL, added: dextrin",18%
